Experimental data collected from several papers.
Lines come from different studies, so protocols differ. Values joined by “and” are separate records of one study, mostly repeats; a detail may differ. Numbers after ± are the reported error.

SMILES | test | test system | conditions | scale | quantity | value
O[C@H]1CCCN[C@@H]1CCCn1cnc2c(Cl)c(Cl)ccc21 | – | healthy volunteers, plasma | oral, 150 mg twice daily, alone | – | Cmax,ss geometric LS mean | 265 ng/mL
C[C@]1(CO)Cc2ncn(-c3ccc(C#N)c(Cl)c3)c2C(=O)O1 | – | human, plasma | 40 mg, first dose fasted | – | AUC(0-inf) | 8.65 µM·h
Clc1ccc(-c2ccccc2)cc1 | – | female Sprague-Dawley rats, serum | inhalation, 23 µg/rat, 2 h after exposure | – | total protein | 5 ± 1 g/dL
CC[C@H](C)[C@H](NC(=O)[C@H](Cc1ccccc1)NC(=O)[C@H](CCC(=O)O)NC(=O)[C@H](CCCNC(=N)N)NC(=O)[C@H](C)NC(=O)[C@H](C)NC(=O)[C@H](CCC(N)=O)NC(=O)[C@H](CCC(=O)O)NC(=O)[C@H](CCC(=O)O)NC(=O)[C@H](CC(C)C)NC(=O)[C@H](Cc1ccc(O)cc1)NC(=O)[C@H](CO)NC(=O)[C@H](CO)NC(=O)[C@@H](NC(=O)[C@H](CC(=O)O)NC(=O)[C@H](CO)NC(=O)[C@@H](NC(=O)[C@H](Cc1ccccc1)NC(=O)[C@@H](NC(=O)CNC(=O)[C@H](CCC(=O)O)NC(=O)[C@H](C)NC(=O)CCc1cnc[nH]1)[C@@H](C)O)[C@@H](C)O)C(C)C)C(=O)N[C@@H](C)C(=O)N[C@@H](Cc1c[nH]c2ccccc12)C(=O)N[C@@H](CC(C)C)C(=O)N[C@H](C(=O)N[C@@H](CCCNC(=N)N)C(=O)NCC(=O)N[C@@H](CCCNC(=N)N)C(=O)N[C@@H](CCCCNC(=O)COCCOCCNC(=O)COCCOCCNC(=O)CC[C@H](NC(=O)CCCCCCCCCCCCCCCCC(=O)O)C(=O)O)C(=O)NCC(=O)NCC(=O)N[C@@H](CO)C(=O)N[C@@H](CCSC)C(=O)N[C@H](C(=O)N[C@@H](CCCCNc1c(NCCCCCN(O)C(=O)CCC(=O)NCCCCCN(O)C(=O)CCC(=O)NCCCCCN(O)C(C)=O)c(=O)c1=O)C(=O)O)C(C)C)C(C)C [zirconium-89 labelled] | ex vivo gamma counting | male Sprague-Dawley rats, duodenum | intravenous, 5 MBq (1 nmol), 72 h | – | tissue uptake | 0.105 %ID/g and 0.079 %ID/g and 0.088 %ID/g
O=C1Nc2cc3[nH]nc(-c4ccncc4)c3cc2CN1Cc1ccccc1 | CTCAE v4.03 | advanced solid tumour patients | intravenous, 0.9 mg/kg, schedules 1/2 | – | patients with decreased appetite | 0%
CN1CC[C@@H](c2c(O)cc(O)c3c(=O)cc(-c4ccc(C(F)(F)F)cc4Cl)oc23)[C@@H]1CO | measured: Lymphopenia | relapsed B-cell malignancies | oral, 100 mg, grade 3-4, intermittent dosing | – | patients with adverse event | 0%
CC(C)(C)c1cc(-n2nc3ccccc3n2)c(O)c(C(C)(C)C)c1 | – | human aged 11-16 years | concentration not given, spray sunscreen, mean | – | daily dermal exposure dose | 3.8 ng/kg/day
C=CCNc1c(O)cc2c(O)c1C[C@@H](C)C[C@H](OC)[C@H](O)[C@@H](C)/C=C(\C)[C@H](OC(N)=O)[C@@H](OC)/C=C\C=C(/C)C(=O)N2 | measured: first-degree AV block | patients with unresectable or metastatic GIST, STS or other tumours | intravenous, 500 mg/m^2 | – | treatment-emergent adverse events | 57%
CCS(=O)(=O)Nc1ccc(Oc2ccc(F)cc2F)c(-c2cn(C)c(=O)c3[nH]ccc23)c1 | fatal pneumonia sepsis | human, relapsed/refractory AML | oral, dose not given | – | treatment-emergent adverse events | 0%
CO[C@H]1C[C@@H]2CC[C@@H](C)[C@@](O)(O2)C(=O)C(=O)N2CCCC[C@H]2C(=O)O[C@H]([C@H](C)C[C@@H]2CC[C@@H](OC(=O)NCCOCCOCCOCCOCCOCCOCCOCCOCCC(=O)N3CCc4cc(Cn5nc(-c6ccc7oc(N)nc7c6)c6c(N)ncnc65)ccc4C3)[C@H](OC)C2)C[C@@H](O)[C@H](C)/C=C(\C)[C@@H](O)[C@@H](OC)C(=O)[C@H](C)C[C@H](C)/C=C/C=C/C=C/1C | – | patients with advanced solid tumours | intravenous, 1.6 mg/3 mg weekly, grade ≥3 | – | incidence of Vomiting TRAE | 0%
Oc1ccc(CSCc2ccc(O)cc2)cc1 | – | ICR mice male | oral, 6000 mg/kg, day 1 before dosing, acute toxicity | – | body weight | 29.9 ± 0.93 g
CCCCCCCCCC(=O)N[C@@H](Cc1c[nH]c2ccccc12)C(=O)N[C@H](CC(N)=O)C(=O)N[C@@H](CC(=O)O)C(=O)N[C@@H]1C(=O)NCC(=O)N[C@@H](CCCN)C(=O)N[C@@H](CC(=O)O)C(=O)N[C@H](C)C(=O)N[C@@H](CC(=O)O)C(=O)NCC(=O)N[C@H](CO)C(=O)N[C@@H]([C@H](C)CC(=O)O)C(=O)N[C@@H](CC(=O)c2ccccc2N)C(=O)O[C@@H]1C | population PK model | human | intravenous, two-compartment model | – | clearance | 0.011 L/min
N#CCNC(=O)c1ccc(-c2ccnc(Nc3ccc(N4CCOCC4=O)cc3)n2)cc1 | population PK model, NONMEM | human | metabolite of momelotinib, typical value, final model | – | Vcm/F | 2.77 L
CC(=O)c1c(C)c2cnc(Nc3ccc(C4CCN(CCS(C)(=O)=O)CC4)cn3)nc2n(C2CCCC2)c1=O | – | human patients, plasma | oral, 100 mg twice daily, day 21 multiple doses | – | AUC(0-t) | 1720 ng·h/mL
C1=Cc2nc1cc1ccc([n-]1)c(C1CC1)c1nc(cc3ccc([n-]3)c2C2CC2)C=C1.CC(=O)[O-].[Mn+3] | LC-MS/MS | Sprague-Dawley rat, plasma | oral gavage, dose not given, 60 min | – | mean plasma concentration | 250 ng/mL
COc1cc(N2CCC(N3CCN(C)CC3)CC2)ccc1Nc1ncnc(Nc2ccccc2S(=O)(=O)C(C)C)n1 | measured: Diarrhea | Japanese patients with solid tumours | oral, dose not given, all grades | – | treatment-emergent adverse events | 7 number (percent)
CC/C(=C(\c1ccccc1)c1ccc(OCCN(C)C)cc1)c1ccccc1 | – | CD-1 mouse, male, plasma | intraperitoneal, 1 mg/kg | – | half-life | 18.7 h
COc1ncccc1-c1cnn2ccc(N3CCN(C(=O)OC(C)C)CC3)nc12 | – | rat rotarod, plasma | 60 mg/kg, 180 min | – | free concentration | 75 nM
CC(C)[C@H](O)C(=O)N[C@H]1Cc2ccc3c(c2)[C@]2(C4=C(c5nc(CO)co5)N=C(O4)[C@H](C(C)(C)C)NC1=O)c1cc(F)ccc1N[C@@H]2O3 | – | NSG mice, brain | intravenous, 10 mg/kg, single dose at MTD, added: paclitaxel 40 mg/kg | – | Cmax | 47 ng/mL
Cc1cccc(Cn2nc(C3CC3)c3c(NC(=O)c4cnc5cc(OCCN6CCN(C)CC6)ccn45)cccc32)n1 | measured: Lipase increased | human advanced solid tumours | oral, 400 mg, all-causality | – | adverse events incidence | 14.3%

SMILES | test | test system | conditions | scale | quantity | value
CCc1ccc(CC/C=C/c2ccc3c(c2)C(=O)CC3)cc1 | – | Sprague-Dawley rat, female, serum | oral, 450 mg/kg/day, 14 days | – | total bilirubin | 1.01 µM
COc1ccc2nc3cc(Cl)ccc3c(Nc3cc(CN4CCCC4)c(O)c(CN4CCCC4)c3)c2n1 | – | mouse, blood | intraperitoneal, 57 mg/kg | – | plateletcrit | 0.06%
CC(C)[C@@H]1NC(=O)CNC(=O)[C@H](CC(N)=O)NC(=O)[C@H](CCCNC(=N)N)NC(=O)[C@H](Cc2ccc(O)cc2)NC(=O)[C@H](C(C)C)NC(=O)[C@@H](NC(=O)[C@@H](NC(=O)[C@H](CC(N)=O)NC(=O)[C@H](Cc2c[nH]c3ccccc23)NC(=O)[C@H](C)NC(=O)[C@H](Cc2ccccc2)NC(=O)CN)C(C)C)CSSC[C@@H](C(=O)N[C@@H](Cc2cnc[nH]2)C(=O)N[C@@H](CCCNC(=N)N)C(=O)N[C@@H](CCCNC(=N)N)C(=O)N[C@@H](C)C(=O)N[C@@H](CC(N)=O)C(N)=O)NC(=O)[C@H](C(C)C)NC(=O)[C@H](CCCNC(=N)N)NC1=O | – | ICR mice, serum | intraperitoneal, 10 mg/kg, day 5 | – | globulin | 18.9 ± 0.19 g/L
C=CC(=O)N1CC[C@H](n2nc(C#Cc3cc(OC)cc(OC)c3)c3c(N)ncnc32)C1 | – | human patients | oral, dose not given, QD regimen, adverse drug reaction, added: sevelamer hydrochloride | – | decreased appetite, grade ≥3 | 4.5%
CC1(C)[C@H](C(=O)O[C@H](C#N)c2cccc(Oc3ccccc3)c2)[C@@H]1C=C(Br)Br | measured: CYP3A4 | human, age 6 months, recombinant human CYP3A4 | 0.1 µM | – | enzyme contribution to clearance | 0.57%
COc1cc2c(Oc3ccc4[nH]c(C)cc4c3F)ccnc2cc1OCC1(N)CC1 | – | paediatric recurrent refractory sarcoma | 10 mg | – | grade 3 Headache | 0%
N[C@@H]1c2ccccc2OC12CCN(c1cnc3c(N4CCCc5ncccc54)n[nH]c3n1)CC2 | – | advanced solid tumour patients | oral, 50 mg once daily | – | TEAE causing dose reduction | 0%
C[C@@H]1OC(=O)NN=C1c1ccc(-c2ccc(F)cc2)c(C(F)(F)F)c1 | phase I trial, measured: back pain worst grade 1 | human patients | 10 mg loading then 0.5 mg daily | – | patients with adverse event | 100%
N=C(N)NCCC[C@H](NC(=O)[C@H](Cc1ccccc1)NC(=O)[C@H](CCC(N)=O)NC(=O)OCc1ccccc1)C(=O)c1nccs1 | – | C57BL/6J mice | intravenous, 5 mg/kg | – | toxicity | not toxic
CC(C)[C@H](N)C(=O)NCCCS(=O)(=O)O | – | human, plasma | oral, 265 mg twice daily, 8 h, week 65 | – | plasma concentration | 52.5 ng/mL
COc1ccnc(C(=O)N[C@H]2COC(=O)[C@H](Cc3ccccc3)[C@@H](OC(=O)C(C)C)[C@H](C)OC2=O)c1OCOC(=O)C(C)C | – | field soil, silty clay loam | actual, northern France | – | DT50 | 14.7 days
C[C@@H](NC(=O)N1C(=O)[C@H](Cc2ccnc(N)c2)[C@H]1C(=O)O)C1CCCCC1 | – | healthy adult Chinese volunteers | continuous intravenous infusion, 0.3 mg/kg/h, 5-day infusion, CTCAE 5.0 grading | – | drug-related decreased neutrophil | 0%
O=C(c1ccc(F)c(F)c1Nc1ccc(I)cc1F)N1CC(O)([C@@H]2CCCCN2)C1 | – | human patients | oral, dose not given, dose escalation, suspension | – | treatment-related AE causing withdrawal | 15%
N#C/N=C1\SCCN1Cc1ccc(Cl)nc1 | – | soil | 28 days, nominal 0.12 | – | concentration | 0 mg/kg dry soil
NCCCC[C@@H]1NC(=O)[C@@H](Cc2c[nH]c3ccccc23)NC(=O)[C@H](c2ccccc2)NC(=O)[C@@H]2C[C@@H](OC(=O)NCCN)CN2C(=O)[C@H](Cc2ccccc2)NC(=O)[C@H](Cc2ccc(OCc3ccccc3)cc2)NC1=O | – | healthy human volunteers | 1950 µg twice daily | – | subjects with adverse event Nausea | 89%
[O-][S+]1CCc2nc(N3CCC(c4ncc(Cl)cn4)CC3)nc(NC3(CO)CCC3)c21 (stereo not shown) | measured: Dizziness | healthy male humans | 12 mg twice daily | – | adverse event incidence | 0%
CNC(=O)N(N(CCCl)S(C)(=O)=O)S(C)(=O)=O | – | 1 mM potassium phosphate | 50 °C | baseline: pH 8.0 over pH 7.0 | half-life ratio | ~8 fold
CCC[C@@](N)(CO)CCc1ccc(OCCCCCC(C)C)cc1 | – | male Sprague-Dawley rat | oral, 30 mg/kg, 6 h | baseline: brain over plasma | brain to plasma ratio | 36
O=C(Nc1ccccc1)C1CCN(C(=O)Oc2cccnc2)CC1 | adverse event reporting | healthy women | oral, 20 mg, 7 days | – | subjects with affect lability | 7.1%
O=S(=O)(Nc1ccccc1)c1ccc(NC(=S)Nc2ccccc2)cc1 | measured: TRIG | male mouse, blood | oral, 80 mg/kg daily, 14 days | – | blood chemistry level | 174 mg/dL

For quick reference, copied from above:
SMILES | test | test system | conditions | scale | quantity | value
[O-][S+]1CCc2nc(N3CCC(c4ncc(Cl)cn4)CC3)nc(NC3(CO)CCC3)c21 (stereo not shown) | measured: Dizziness | healthy male humans | 12 mg twice daily | – | adverse event incidence | 0%
CCc1ccc(CC/C=C/c2ccc3c(c2)C(=O)CC3)cc1 | – | Sprague-Dawley rat, female, serum | oral, 450 mg/kg/day, 14 days | – | total bilirubin | 1.01 µM
